Measurements gathered from unrelated publications.
Protocols differ between the studies behind these lines. Numbers after ± are the reported error.
rep main protease: Replicase polyprotein 1ab, main protease (rep, Severe acute respiratory syndrome coronavirus 2, UniProt P0DTD1)
rep nsp14 N7-methyltransferase: Replicase polyprotein 1ab, nsp14 N7-methyltransferase (rep, Severe acute respiratory syndrome coronavirus 2, UniProt P0DTD1)
rep papain-like protease: Replicase polyprotein 1ab, papain-like protease (rep, Severe acute respiratory syndrome coronavirus 2, UniProt P0DTD1)

O=c1c2ccccc2[se]n1-c1ccccc1  Hill coefficient (rep main protease; enzyme activity, inhibitor, FRET): 2.61 ± 0.25
O=C(NC1CCCc2c1[nH]c1ccccc21)c1cc(=O)[nH]c2ccccc12 (stereo not drawn)  Hill slope (rep nsp14 N7-methyltransferase; N7-methyltransferase activity, inhibitor, Py-FLINT): 1.3 ± 0.1
CC[C@H](NC(=O)OCc1ccccc1)C(=O)N[C@H](C(=O)N[C@@H](CC(C)C)C(=O)N(C)N(C#N)CCC(N)=O)C(C)(C)C  kinact/Ki (rep main protease; inhibitor, biochemical): 21400 M⁻¹ s⁻¹
COC(=O)C1=C(C(=O)OC)C(c2ccc(Cl)cc2)c2sc(=O)[nH]c2S1 (stereo not drawn)  Hill slope (rep nsp14 N7-methyltransferase; N7-methyltransferase activity, inhibitor, Py-FLINT): 0.74 ± 0.24
Nc1ncnc2c1ncn2[C@@H]1O[C@H](CSCC[C@H](N)C(=O)O)[C@@H](O)[C@H]1O  Hill slope (Replicase polyprotein 1ab, nsp16 with nsp10 (rep, Severe acute respiratory syndrome coronavirus 2, UniProt P0DTD1); inhibitor): -0.8
CCC(C(=O)Nc1cc(NC2COC2)ccc1C)n1cc(F)cc2nc(SCc3ccc(F)cc3)nc1-2 (stereo not drawn)  koff (rep papain-like protease; binding): 0.265 ± 0.028 s⁻¹
O=C(NC[C@@H]1CC2(CCOCC2)CN1C(=O)c1ccc2c(c1)C(=O)NC2)c1cccnn1  inhibition (rep main protease; enzyme activity, inhibitor; 5 µM, run 1): 10.4%
Nc1ccn([C@H]2C[C@H](O)[C@@H](COP(=O)(O)OP(=O)(O)OP(=O)(O)O)O2)c(=O)n1  Vmax (Replicase polyprotein 1ab, nsp12 RdRp (rep, Severe acute respiratory syndrome coronavirus 2, UniProt P0DTD1); nucleotide incorporation, substrate): 0.98 fraction per time
C=CS(=O)(=O)N(c1ccc(C(C)(C)C)cc1)C(C(=O)NC1CCCCC1)c1cccnc1 (stereo not drawn)  kinact (rep main protease; enzyme activity, inhibitor): 0.0061 s⁻¹
O=C(NC[C@H](NC(=O)c1cncc2ccccc12)c1ccc2ccccc2c1)c1cnc[nH]1  inhibition (rep main protease; enzyme activity; 5 µM, mean of runs): 19%
O=c1c(O)c(-c2ccc(O)cc2)oc2c(O)c(O)cc(O)c12  modification (rep main protease; covalent modification; 20 µM, protein 10 µM, molar ratio 1:2): 5.1%
CC[C@H](C)[C@H](NC(=O)[C@H](CC(C)C)NC(=O)[C@H](Cc1c[nH]c2ccccc12)NC(=O)[C@H](CCC(N)=O)NC(=O)[C@@H](NC(=O)[C@H](Cc1ccccc1)NC(=O)[C@H](C)NC(=O)[C@H](CCCCNC(=O)COCCOCCNC(=O)COCCOCCNC(=O)CC[C@H](NC(=O)CCCCCCCCCCCCCCCCCCC(=O)O)C(=O)O)NC(=O)[C@H](CCC(N)=O)NC(=O)[C@H](C)NC(=O)[C@@H](NC(=O)[C@H](CCCCN)NC(=O)[C@H](CC(=O)O)NC(=O)[C@H](CC(C)C)NC(=O)C(C)(C)NC(=O)[C@@H](NC(=O)[C@H](CO)NC(=O)[C@H](Cc1ccc(O)cc1)NC(=O)[C@H](CC(=O)O)NC(=O)[C@H](CO)NC(=O)[C@@H](NC(=O)[C@H](Cc1ccccc1)NC(=O)[C@@H](NC(=O)CNC(=O)[C@H](CCC(=O)O)NC(=O)C(C)(C)NC(=O)[C@@H](N)Cc1ccc(O)cc1)[C@@H](C)O)[C@@H](C)O)[C@@H](C)CC)[C@@H](C)CC)C(C)C)C(=O)N[C@@H](C)C(=O)NCC(=O)NCC(=O)N1CCC[C@H]1C(=O)N[C@@H](CO)C(=O)N[C@@H](CO)C(=O)NCC(=O)N[C@@H](C)C(=O)N1CCC[C@H]1C(=O)N1CCC[C@H]1C(=O)N1CCC[C@H]1C(=O)N[C@@H](CO)C(N)=O  subjects with adverse event (measured: treatment-emergent decreased appetite; healthy subjects; 0.5 mg, multiple ascending dose): 0%
O=c1c2ccccc2[se]n1-c1ccccc1  Hill slope (rep nsp14 N7-methyltransferase; N7-methyltransferase activity, inhibitor, Py-FLINT): 2.5 ± 0.49
Cc1nocc1C(=O)N1Cc2ccccc2[C@@H](CNC(=O)c2cncc3ccc(F)cc23)C1  inhibition (rep main protease; enzyme activity, inhibitor; 5 µM, run 1): 17.1%
O=C(O)/C(S)=C/c1c[nH]c2ccc(F)cc12  inhibition (rep main protease; viral replication, mKate2 reporter; SARS-CoV-2; 20 µM): -0.438%
COCCC(=O)N1CCC(Oc2ccccc2)C1 (stereo not drawn)  log fold enrichment (Replicase polyprotein 1ab, nsp13 helicase (rep, Severe acute respiratory syndrome coronavirus 2, UniProt P0DTD1); binding, affinity selection mass spectrometry; reference: other proteins in batch): -0.0989
CC(C)c1cccc(C(C)C)c1N1C(=O)c2ccc(N)cc2C1=O  inhibition (rep main protease; viral replication, mKate2 reporter; SARS-CoV-2; 20 µM): 0.541%
CCC(C(=O)Nc1cc(NC2CNC2)ccc1C)n1cc(Cl)cc2nc(SCc3ccc(F)cc3)nc1-2 (stereo not drawn)  koff (rep papain-like protease; binding): 0.037 ± 0.003 s⁻¹
O=C(O)/C=C/c1ccc(Cn2ccnc2)cc1  inhibition (rep main protease; reporter gene (mKate2), inhibitor; 20 µM): -0.922%
N[C@@H](CC(=O)N1CCn2c(nnc2C(F)(F)F)C1)Cc1cc(F)c(F)cc1F  HTS outcome (rep papain-like protease; inhibition; 20 µM): inactive
O=c1nc(Nc2cccc(Cl)c2)cn[nH]1  Hill slope (rep nsp14 N7-methyltransferase; N7-methyltransferase activity, inhibitor, Py-FLINT): 0.74 ± 0.12
CC(C)C1CC(c2ccc(C(=O)O)cc2)=NN1c1ccc(C#N)c(Cl)c1.N (stereo not drawn)  lipophilic ligand efficiency (Replicase polyprotein 1ab, nsp14 methyltransferase (rep, Severe acute respiratory syndrome coronavirus 2, UniProt P0DTD1)): 1.6
CC#CCn1c(N2CCC[C@@H](N)C2)nc2c1c(=O)n(Cc1nc(C)c3ccccc3n1)c(=O)n2C  inhibition (rep main protease; reporter gene (Gaussia luciferase), inhibitor; 20 µM): -0.825%
CC1(C)CC(=O)c2c(oc3c(Cl)cc(NS(=O)(=O)c4ccc5ccccc5c4)cc23)C1  Hill slope (rep nsp14 N7-methyltransferase; N7-methyltransferase activity, inhibitor, Py-FLINT): 1.34 ± 0.1
O=C(NCCC[C@@H](NC(=O)c1cccc2cc(=O)[nH]cc12)c1ccccc1)c1cn[nH]c(=O)c1  inhibition (rep main protease; enzyme activity, inhibitor; 5 µM, mean of runs): 14.1%
O=[N+]([O-])c1cc(O)c(O)c([N+](=O)[O-])c1  Hill slope (rep nsp14 N7-methyltransferase; N7-methyltransferase activity, inhibitor, Py-FLINT): 0.77 ± 0.07
O=C(N[C@@H](CNC(=O)[C@H]1CC12CC2)c1ccc2ccccc2c1)c1cncc2ccccc12  inhibition (rep main protease; enzyme activity, inhibitor; 5 µM, mean of runs): 13.3%
CC[C@H](NC(=O)CCC(=O)O)C(=O)N[C@H](C(=O)N[C@@H](CC(C)C)C(=O)N[C@@H](CCC(N)=O)C(=O)Nc1ccc2c(C)cc(=O)oc2c1)C(C)(C)C  apparent second-order rate constant (rep main protease; substrate; 5% DMSO; pH 7.2, 37 °C): 567 M⁻¹ s⁻¹
CC(C)c1cccc(NC(=O)C2CC(=O)Nc3ccccc32)c1 (stereo not drawn)  Hill slope (rep main protease; enzyme activity, inhibitor; SARS-CoV-2): 1.44
O=C(NC[C@H](NC(=O)c1cn[nH]c1-c1ccoc1)c1ccc2ccccc2c1)c1ccccc1  inhibition (rep main protease; enzyme activity, inhibitor; 5 µM, run 1): 13.2%
Cc1cc(-c2ccc(/N=N/c3ccc4c(S(=O)(=O)O)cc(S(=O)(=O)O)c(N)c4c3O)c(C)c2)ccc1/N=N/c1ccc2c(S(=O)(=O)O)cc(S(=O)(=O)O)c(N)c2c1O  Hill slope (rep nsp14 N7-methyltransferase; N7-methyltransferase activity, inhibitor, Py-FLINT): 1.21 ± 0.07
N#C[C@@]1(n2ccc(N)nc2=O)O[C@H](COP(=O)(O)OP(=O)(O)OP(=O)(O)O)[C@@H](O)[C@H]1O  CNC:C mismatch amplitude (Replicase polyprotein 1ab, nsp12 with nsp7/nsp8 (rep, Severe acute respiratory syndrome coronavirus 2, UniProt P0DTD1); with: 0.1 µM RNA): < 5%
CNC(=O)[C@@H](NC(=O)[C@H](CC(C)C)[C@H](O)C(=O)NO)C(C)(C)C  viability difference (C2C12; 10 µM, with: AP venom; reference: venom alone): 55.4%
O=C1CCCC(=O)C1CC1C(=O)CCCC1=O  inhibition (rep main protease; viral replication, Gluc reporter; SARS-CoV-2; 20 µM): 1.19%
Nc1ncnc2c([C@@H]3N[C@H](CO)[C@@H](O)[C@H]3O)c[nH]c12  inhibition (Marburg virus; surface glycoprotein expression; HeLa, Musoke; 25 µM, 12 h): 88.9%
CC(C)C[C@H](NC(=O)CNC(=O)c1cc(Cl)ccc1Cl)B(O)O  inhibition (rep main protease; reporter gene (Gaussia luciferase), inhibitor; 20 µM): -4.66%
O=C(c1ccc2c(c1)COC2)N1CCCC[C@H](C2CN(C(=O)c3cncc4[nH]cnc34)C2)C1  inhibition (rep main protease; enzyme activity, inhibitor; 5 µM): 18.4%
Cc1nn(-c2ccc(Cl)cc2)c2c1C(c1ccc(Cl)cc1Cl)C(C#N)=C(N)O2 (stereo not drawn)  inhibition (rep main protease; 3CL protease activity; 0.01 µg/mL, 90 min, enzyme 10 ng/mL): 28.5%
CCc1cc(C(=O)N2CC[C@@H]([C@@H]3CCCN3C(=O)c3ccc4oc(N)nc4c3)C2)cc(=O)[nH]1  inhibition (rep main protease; enzyme activity, inhibitor; 5 µM, mean of runs): 11.7%
O=c1oc2cc(O)cc(O)c2c2oc3cc(O)c(O)cc3c12  inhibition (rep main protease; reporter gene (Gaussia luciferase), inhibitor; 20 µM): -0.38%
CCN(Cc1cn(C[C@H]2O[C@@H](n3cnc4c(N)ncnc43)[C@H](O)[C@@H]2O)nn1)S(=O)(=O)c1ccc(OC)cc1  remaining binding (rep nsp14 N7-methyltransferase; N7-methyltransferase activity, inhibitor, radioactive filter binding; 50 µM, 0.5 h, 30 °C, with: GpppAC4 RNA, SAM): > 50%
CCC[C@H](NC(=O)[C@H](CC(C)C)NC(=O)OCc1ccccc1)C(=O)C(=O)NCc1ccccc1  ΔTm (rep main protease; thermal stability, DSF): -0.07 °C
CC1=NN(c2ccccc2)C(=O)C1  inhibition (rep main protease; reporter gene (Gaussia luciferase), inhibitor; 20 µM): 0.985%
CCOC(=O)c1c(-c2cccs2)csc1N  Hill slope (rep nsp14 N7-methyltransferase; N7-methyltransferase activity, inhibitor, Py-FLINT): 1.45 ± 0.17
Cn1cnc(Cn2c(=O)[nH]/c(=N\c3cc4cn(C)nc4cc3Cl)n(Cc3cc(F)c(F)cc3F)c2=O)n1  patients with adverse event (human, severe renal impairment; oral, 375 mg, vessel puncture site haemorrhage TEAE, Moderate severity): 0%

Repeated from above:
Nc1ncnc2c([C@@H]3N[C@H](CO)[C@@H](O)[C@H]3O)c[nH]c12  inhibition (Marburg virus; surface glycoprotein expression; HeLa, Musoke; 25 µM, 12 h): 88.9%
CC(C)C[C@H](NC(=O)CNC(=O)c1cc(Cl)ccc1Cl)B(O)O  inhibition (rep main protease; reporter gene (Gaussia luciferase), inhibitor; 20 µM): -4.66%
O=C(c1ccc2c(c1)COC2)N1CCCC[C@H](C2CN(C(=O)c3cncc4[nH]cnc34)C2)C1  inhibition (rep main protease; enzyme activity, inhibitor; 5 µM): 18.4%
Cc1nn(-c2ccc(Cl)cc2)c2c1C(c1ccc(Cl)cc1Cl)C(C#N)=C(N)O2 (stereo not drawn)  inhibition (rep main protease; 3CL protease activity; 0.01 µg/mL, 90 min, enzyme 10 ng/mL): 28.5%
CCc1cc(C(=O)N2CC[C@@H]([C@@H]3CCCN3C(=O)c3ccc4oc(N)nc4c3)C2)cc(=O)[nH]1  inhibition (rep main protease; enzyme activity, inhibitor; 5 µM, mean of runs): 11.7%
O=c1oc2cc(O)cc(O)c2c2oc3cc(O)c(O)cc3c12  inhibition (rep main protease; reporter gene (Gaussia luciferase), inhibitor; 20 µM): -0.38%
CCN(Cc1cn(C[C@H]2O[C@@H](n3cnc4c(N)ncnc43)[C@H](O)[C@@H]2O)nn1)S(=O)(=O)c1ccc(OC)cc1  remaining binding (rep nsp14 N7-methyltransferase; N7-methyltransferase activity, inhibitor, radioactive filter binding; 50 µM, 0.5 h, 30 °C, with: GpppAC4 RNA, SAM): > 50%
